Assay results of several laboratories.
Protocols differ between the studies behind these lines. ± marks the error that the study gave.
Organism: Plasmodium falciparum

With `O=C(O)c1nn(Cc2ccc(Cl)cc2Cl)c2ccccc12` the IC50 was 209000 ± 1.3 nM (3D7; 48 h, intraerythrocytic stage).
`CC(C)=CCC/C(C)=C/CNCCCOC1C2CC3CC(C2)CC1C3` (centres unmarked) gave an IC50 of 0.83 µg/mL (parasite growth; 3D7; blood stage).
For `Antimycin A`, the IC50 was 16 ± 8 nM (oxygen consumption; K1).
The IC50 of `CCCCCCC[N+](CC)(CC)CCCCc1ccc(Cl)cc1` is reported as 524 nM (parasite proliferation, SYBR Green; 3D7; 72 h).
`CCN(CC)CCCC(C)Nc1ccnc2cc(Cl)ccc12` (centres unmarked) has an IC50 of 36.4 nM (parasite growth; W2; 48 h, drug-resistant strain, blood stage).
With `NC(=O)c1cccc(O)c1O` the IC50 was 40100 nM (parasite growth; K1, multidrug-resistant).
For `CCCCCCC(C)CC1=C(O)C(=O)c2c(C)cccc2C1=O` (centres unmarked), the IC50 was 191 nM (parasite growth, [3H]hypoxanthine incorporation; W2 chloroquine-resistant, human erythrocytes).
The IC50 of `C[C@@H]1CC[C@H]2[C@@H](C)C(=O)O[C@@H]3O[C@@]4(C)CC[C@@H]1[C@]32OO4` is reported as 20.4 ± 2.4 nM (parasite growth, SYBR Green I; Dd2, chloroquine-resistant).
`C[C@@H]1N[C@H](CCCCCCCCCCc2cc(CCCCCCCCCC[C@@H]3CC[C@@H](O)[C@H](C)N3)c3[n+](c2)CCC3)CC[C@H]1O.[Cl-]` gave an IC50 of 0.27 µg/mL (parasite growth; W2; 72 h, drug-resistant strain, blood stage).
For `COc1ccc(C[C@H]2NC[C@H](O)[C@H]2OC(C)=O)cc1`, the IC50 was 20 nM (parasite proliferation, SYBR Green; 3D7; 72 h).
`O=CCCCCCCCCCOCCCc1cccnc1` gave an IC50 of 20300 ± 200 nM (anti-HRPII ELISA; W2 chloroquine-resistant; 72 h).
`carbostyril 127` has an IC50 of 85 nM (parasite proliferation, SYBR Green; 3D7; 72 h).
For `CCN(CC)CCCC(C)Nc1ccnc2cc(Cl)ccc12` (centres unmarked), the IC50 was 0.116 µg/mL (parasite growth; W2; drug-resistant strain, blood stage).
The IC50 of `CC(=O)O[C@@H]1CC=C2CCN3Cc4cc5c(cc4[C@H]1[C@@H]23)OCO5` is reported as 3300 nM (parasite growth; DD2; drug-resistant strain, blood stage).
With `CCCCCCC(C)CC1=C(O)C(=O)c2ccccc2C1=O` (centres unmarked) the IC50 was 348 nM (parasite growth, [3H]hypoxanthine incorporation; TM91C235 multidrug-resistant, human erythrocytes).
With `CN(CCCCCCCCCCN(C)C(=O)Oc1cccc([N+](C)(C)C)c1)C(=O)Oc1cccc([N+](C)(C)C)c1` the IC50 was 380 nM (parasite proliferation, SYBR Green; 3D7; 72 h).
`CC(CCCCCC(F)(F)F)CC1=C(O)C(=O)c2ccccc2C1=O` (centres unmarked) gave an IC50 of 5 nM (parasite growth, [3H]hypoxanthine incorporation; D6 chloroquine-sensitive, human erythrocytes).
For `CC(=O)Nc1c2sscc-2n(C)c1=O`, the IC50 was 5920 nM (parasite growth; K1, multidrug-resistant).
`COc1cc(/C=C/C=C/c2ccccc2)oc(=O)c1` gave an IC50 of under 10000 nM (parasite growth; K1; drug-resistant strain, blood stage).
`CCCCNc1c(C(=O)OCC)c(C)nc2c1cnn2CC` has an IC50 of 120 nM (parasite proliferation, SYBR Green; 3D7; 72 h).
For `CCN(CC)CCOc1ccc2c(=O)c3cc(F)c(OCCN(CC)CC)cc3[nH]c2c1`, the IC50 was over 116 nM (D6).
The IC50 of `CCN(CC)CCCC(C)Nc1ccnc2cc(Cl)ccc12` (centres unmarked) is reported as 293 nM (parasite growth; K1; drug-resistant strain, blood stage).
The IC50 of `CCN(CC)CCOc1ccc2c(c1)C(=O)c1cc(OCCN(CC)CC)ccc1-2` is reported as 1000 nM (parasite proliferation, SYBR Green; 3D7; 72 h).
For `CCN(CC)CCCC(C)Nc1ccnc2cc(Cl)ccc12` (centres unmarked), the IC50 was 66.2 ± 10.1 nM (parasite growth, SYTOX green flow cytometry; K1 chloroquine-resistant; 48 h, ring stage).
For `N=C(N)NCCCCC(=O)Nc1cc(C(F)(F)F)cc(NC(=O)c2cc(C(=O)Nc3cc(C(F)(F)F)cc(NC(=O)CCCCNC(=N)N)c3O[C@@H]3CCNC3)ncn2)c1O[C@@H]1CCNC1`, the IC50 was under 1000 nM (parasite growth, SYBR green I; INDO or Cam3.1 R539T, human red blood cells; 72 h).
With `CC1=C(O)C(=O)c2ccccc2C1=O` the IC50 was at least 266000 nM (parasite growth; W2; drug-resistant strain, blood stage).
With `O=C(C=Cc1ccc[nH]1)NCC(=O)NC12CC3CC(CC(C3)C1)C2` the IC50 was over 2500 nM (parasite growth; Dd2, chloroquine-resistant).
With `CC(C)=CCC/C(C)=C/COCCOC1C2CC3CC(C2)CC1C3` (centres unmarked) the IC50 was 7.9 µg/mL (parasite growth; 3D7; blood stage).
`FCCCCCCCCCCOCCCc1cccnc1` has an IC50 of 2500 ± 100 nM (anti-HRPII ELISA; W2 chloroquine-resistant; 72 h).
The IC50 of `COc1cc(/C=C/c2ccc(/C=C/c3cc(OC)cc(=O)o3)cc2)oc(=O)c1` is reported as under 10000 nM (parasite growth; K1; drug-resistant strain, blood stage).
For `C=C(C)[C@H]1Cc2c(ccc3c2O[C@@H]2COc4cc(OC)c(OC)cc4[C@@H]2C3=O)O1`, the IC50 was over 2500 nM (parasite growth; K1; drug-resistant strain, blood stage).
`COC1=CC(c2ccc[nH]2)=N/C1=C\c1ccc(CCCCCCCCCCCN)[nH]1` has an IC50 of over 1700 nM (parasite growth; D6; 72 h).
For `N=C(N)c1ccc(-c2ccc(-c3ccc(C(=N)N)nc3)cc2)cn1`, the IC50 was at most 0.6 nM (parasite growth; K1).
For `CCCCOc1ccc(CC(=O)NO)cc1`, the IC50 was 3000 nM (parasite proliferation, SYBR Green; 3D7; 72 h).
With `CO/C(=C/C(N)=O)[C@H](C)[C@H](/C=C/c1csc(-c2csc([C@@H](C)/C=C/C=C/C(C)C)n2)n1)OC` the IC50 was 410 ± 280 nM (oxygen consumption; K1).
`CC[C@H](C)[C@H](NC(=O)[C@H]([C@@H](C)CC)N(C)C(C)=O)C(=O)N[C@H](C(=O)N[C@@H](CC(C)C)C(=O)[C@@]1(C)CO1)[C@@H](C)O` gave an IC50 of 1.42 ± 0.09 nM (gametocyte viability, alamarBlue; 3D7 stage III-V gametocytes; 72 h).
The IC50 of `C[C@]12CC[C@H](O)C[C@@]1(O)CC[C@@H]1[C@@H]2CC[C@]2(C)[C@@H](c3ccc(=O)oc3)CC[C@]12O` is reported as under 2 µg/mL (parasite growth, imaging; W2; 48 h, drug-resistant strain, blood stage).
With `CC(C)=CCC/C(C)=C/CNC(=O)COC1C2CC3CC(C2)CC1C3` (centres unmarked) the IC50 was 6.2 µg/mL (parasite growth; 3D7; blood stage).
`CC[C@@H](C(=O)[C@@H](C)[C@@H](O)[C@H](C)CCc1ccc(C)c(O)c1C(=O)O)[C@H]1O[C@](CC)([C@H]2CC[C@](O)(CC)[C@H](C)O2)C[C@@H]1C` has an IC50 of 200 nM (parasite proliferation, SYBR Green; 3D7; 72 h).
The IC50 of `CC(C)=CCC1=C(O)C(=O)c2ccccc2C1=O` is reported as 93000 nM (parasite growth; W2; drug-resistant strain, blood stage).
The IC50 of `CC(C)=CCC/C(C)=C/CNCCOc1ccccc1` is reported as 14 µg/mL (parasite growth; 3D7; blood stage).
`N=C(N)c1ccc(-c2ccc(-c3cnc(C(=N)N)nc3)cc2)cc1` has an IC50 of at most 0.6 nM (parasite growth; K1).
The IC50 of `CC(C)=CCC/C(C)=C/C[N+](C)(C)CCOC1C2CC3CC(C2)CC1C3.[I-]` (centres unmarked) is reported as 0.08 µg/mL (parasite growth; 3D7; blood stage).
With `CC(C)/C=C/C1=C(O)C(=O)c2ccccc2C1=O` the IC50 was 12700 nM (parasite growth; W2; drug-resistant strain, blood stage).
